# Assay results pooled from the literature.
# Protocols differ between the studies behind these lines. “And” joins repeats or separate records; there may be more than shown.
# Target: Vasopressin V1a receptor (AVPR1A, Homo sapiens, UniProt P37288)
Compound,assay,system,conditions,how to read,endpoint,result
O=C(O)c1ccc(-c2nc(-c3ccccc3Cl)c3sccn23)cc1,"radioligand binding, safety screen panel",,10 µM,reference: control,specific binding,99.6% and 80.6%
CS(C)(=O)=Nc1ccc(-c2ccc(-c3nc4cc(O[C@@H]5CO[C@H]6[C@@H]5OC[C@H]6O)[nH]c4cc3F)cc2)cc1,"calcium signal, antagonist",,10 µM,,inhibition,44%
CCN(CC)CCOc1ccc(-c2nnn(Cc3ccc(OC)cc3)c2N)cc1,radioligand binding,CHO,"10 µM, human, with: radioligand 10000 nM",,inhibition,-12.1%
C/C(=N\OCCCN1CCCCC1)c1ccc(C(F)(F)F)cc1,"antagonist, IP-One",,10 µM,,inhibition,2.53%
Cc1cc(Nc2nc(C[C@@]3(C(=O)O)CCN(Cc4cccc(Cl)c4F)[C@H](C)C3)cc(C)c2F)[nH]n1,inhibitor,,10 µM,,inhibition,-12%
CCc1nnc(-c2c(OC)cc(-c3cnc4cc(-c5cnn(C)c5)ccn34)cc2OC)o1,"agonist radioligand, radioligand binding",,"10 µM, SafetyScreen44 V1a replicate 2",lower = stronger displacement,remaining binding,103%
COc1ccc(F)cc1S(=O)(=O)Nc1cnc2c(c1)C(=O)NCCO2,"ligand displacement, radioligand",,10 µM,,inhibition,-3%
N[C@H](C(=O)N1CCCC1)C1CCN(c2nccc3c(-c4ncc(Cl)cc4Cl)cccc23)CC1,"functional response, agonist",,10 µM,,response,20%
Cc1sc2c(c1C)C(c1ccc(Cl)cc1)=NC(CC(=O)OC(C)(C)C)c1nnc(C)n1-2 (stereo not shown),"ligand displacement, radioligand",,1 µM,,remaining binding,105%
Cc1cc(-c2ccc3ccccc3c2)nnc1NCCN1CCN(C)CC1,antagonist,,concentration not given,,antagonist activity,negative

# Some of these lines once more:
Compound,assay,system,conditions,how to read,endpoint,result
O=C(O)c1ccc(-c2nc(-c3ccccc3Cl)c3sccn23)cc1,"radioligand binding, safety screen panel",,10 µM,reference: control,specific binding,99.6% and 80.6%
CCN(CC)CCOc1ccc(-c2nnn(Cc3ccc(OC)cc3)c2N)cc1,radioligand binding,CHO,"10 µM, human, with: radioligand 10000 nM",,inhibition,-12.1%
